Measured values of several laboratories.
Protocols differ between the studies behind these lines. Numbers after ± are the reported error.

Molecule	assay	system	conditions	how to read	measurement	result
insulin human	measured: ACHE mRNA	uninfected mouse, brain	i.p., dose not given	reference: PBS	fold change	0.99
LPYAK	DSC	peptide, 6/4 SOPC/cholesterol bilayers	5 mol%, pH 7.40, SOPC chain melting transition	–	transition enthalpy	0.3 kcal/mol
COCCOCCOCCOc1ccc(C2=N[C@@](C)(C(=O)O)CS2)c(O)c1	–	bile duct-cannulated rats, bile and urine	oral, 300 µmol/kg, 24 h, with: uranium 1 mg/kg s.c.	–	uranium excretion	435 ± 131 µg/kg
LPYGK	DSC	peptide, 6/4 SOPC/cholesterol bilayers	5 mol%, pH 7.40, SOPC chain melting transition	–	transition enthalpy	0.2 kcal/mol
ASRELKVTF	AIM	peptide, CD8+ T cells from PBMC, human donors	HLA-A*30:01 restricted, unit not given	reference: positive over tested donors	frequency of responding donors	100
CC[C@H](C)[C@H](NC(=O)[C@H](Cc1ccc(O)cc1)NC(=O)[C@H](Cc1c[nH]c2ccccc12)NC(=O)[C@H](CC(C)C)NC(C)=O)C(=O)N[C@@H](CCCCN)C(N)=O	DSC	SOPC/cholesterol 7/3 bilayers	15 mol%, pH 7.40	–	transition enthalpy	1.4 kcal/mol
FVNEFYAYLR	AIM	peptide, CD8+ T cells from PBMC, human donors	–	reference: positive over tested donors	frequency of responding donors	100%
COCCOCCOCCOc1cccc(C2=N[C@@](C)(C(=O)O)CS2)c1O	–	rat, bile duct-cannulated, bile and urine	subcutaneous, 300 µmol/kg single dose, 24 h, with: uranium 1 mg/kg s.c.	–	uranium excretion	314 ± 105 µg/kg
KPFERDISTEI	AIM	peptide, CD8+ T cells from PBMC, human donors	HLA-B*07:02 restricted, unit not given	reference: positive over tested donors	frequency of responding donors	40
C/C=C1\NC(=O)C(C(C)O)NC(=O)C(CCCN)NC(=O)C(CCO)NC(=O)CNC(=O)C(CCN)NC(=O)C(NC(=O)CC(O)CCCCCCCCCCC)COC(=O)C(C(O)CCl)NC(=O)C(C(O)C(=O)O)NC1=O (stereo not shown)	calcein leakage	DOPC/CHOL liposomes	concentration not given, with: 20 wt% PEG-8000	–	fusion time constant	3 ± 1 min
